Measurements gathered from unrelated publications.
Numbered parts are unrelated; each lists some results of a single study. Substitutions count along the parent as printed.

Study 1
Target: Interferon regulatory factor 5, full length, phosphomimetic (IRF5, Homo sapiens, UniProt Q13568-2, residues 1-514, K96S/S451D/S453D/S456D/S462D)
Method: protein-binding microarray
Form: double-stranded DNA, one strand shown
Medium: in vitro
Concentration: 250 nM
Setting: 60-bp whole probe
Together with: salmon DNA 0.4 mg/ml
Relative to: random background probes
Direction: higher = stronger binding
Constant ends, left off below: GCCTAGCAC … GTCTTGATTCGCTTGACGCTGCTG
`GACGGTTTCGGGTATTGGGACGTGCTA` gave a log fluorescence of 7.81 z-score.
`GACGATCTCAGACTGGATACGTGCTAG` has a log fluorescence of 0.144 z-score.
`GTGAACCGGTCTCTCAGACCGTGCTAG` has a log fluorescence of -0.37 z-score.
`GACGATTTCTGTCTCGAGACGTGCTAG` gave a log fluorescence of 1.83 z-score.
With `GACGGTATCGGTCTCTGGACGTGCTAG` the log fluorescence was 5.23 z-score.
With `TTAGGACTGGGAACTGGGTTAGTGCTA` the log fluorescence was -0.295 z-score.
`TTAGAACTGAGACCGGATTAGTGCTAG` gave a log fluorescence of -0.391 z-score.
With `TTAGATATCGGGTATTGATTAGTGCTA` the log fluorescence was 2.49 z-score.
With `GACGGTTTCGTGACTGGGGACGTGCTA` the log fluorescence was 1.62 z-score.
`GCACGTGACTGTTTCCCAATGTGCTAG` gave a log fluorescence of 0.0956 z-score.
`TTAGGACTGGACTTTCGGTTCGTGCTA` has a log fluorescence of 8.52 z-score.
For `TTAGGTATCGGTTTCGGTTGGTGCTAG`, the log fluorescence was 9.84 z-score.
With `GACGGTATCGGGTTTCGGAACGTGCTA` the log fluorescence was 5.19 z-score.
`GTTCTTTTCTGTTGTCTGTGTGTGCTA` has a log fluorescence of 2.46 z-score.
`GAATATATGTATATATGTGTGTGCTAG` has a log fluorescence of 0.56 z-score.
For `TTAGGACTGGGTATCGGTTGGTGCTAG`, the log fluorescence was 3.28 z-score.
`TAATTTTTTAGCTTCTCAATGTGCTAG` gave a log fluorescence of 0.617 z-score.
With `GACGAACAGGGGACTGGAGACGTGCTA` the log fluorescence was -0.541 z-score.
`GACGATCTCACTCTCGAGACGTGCTAG` gave a log fluorescence of 0.343 z-score.

Study 2
Target: Histone acetyltransferase KAT6A, winged helix 1, GST fusion (KAT6A, Homo sapiens, UniProt Q92794, residues 1-85)
Method: protein binding microarray
Form: double-stranded DNA, one strand shown
Medium: in vitro
Concentration: not given
Setting: 8-mer, flanks averaged, mean of 2 arrays, mostly near background
Relative to: not given
Direction: higher = stronger binding
Residues (chain): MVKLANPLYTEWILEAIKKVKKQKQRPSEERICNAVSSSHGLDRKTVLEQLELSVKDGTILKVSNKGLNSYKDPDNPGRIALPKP
`CTTAATGA` gave an E-score of -0.106.
The E-score of `GGATGCCC` is reported as 0.0435.
For `AACGTGCG`, the E-score was 0.143.
The E-score of `CCGCTCCA` is reported as 0.123.
For `CCAGCCAC`, the E-score was -0.147.
With `ATTCCACA` the E-score was -0.124.
`CATTGGCG` gave an E-score of 0.228.
`ATATGACA` has an E-score of -0.234.
`AATTCGTC` gave an E-score of -0.0689.
The E-score of `GAATCGCC` is reported as 0.215.
`GCCGCACA` gave an E-score of 0.301.
`CAACAACG` has an E-score of -0.13.
`AGAGCACA` gave an E-score of -0.179.
With `CGCCCGAA` the E-score was 0.0824.
The E-score of `AACACGGA` is reported as 0.292.
`CACTCCTG` has an E-score of -0.152.
`ACCGAGCG` has an E-score of 0.33.
With `AAAGGGAT` the E-score was -0.194.
With `GCACCGGA` the E-score was 0.288.

Study 3
Target: Sal-like protein 4, full length isoform B (SALL4, Homo sapiens, UniProt Q9UJQ4-2, residues 1-616)
Method: universal PBM
Form: double-stranded DNA, one strand shown
Medium: in vitro
Concentration: not given
Setting: 8-mer, flanks averaged, mean of replicates
Direction: higher = stronger binding
Residues (chain): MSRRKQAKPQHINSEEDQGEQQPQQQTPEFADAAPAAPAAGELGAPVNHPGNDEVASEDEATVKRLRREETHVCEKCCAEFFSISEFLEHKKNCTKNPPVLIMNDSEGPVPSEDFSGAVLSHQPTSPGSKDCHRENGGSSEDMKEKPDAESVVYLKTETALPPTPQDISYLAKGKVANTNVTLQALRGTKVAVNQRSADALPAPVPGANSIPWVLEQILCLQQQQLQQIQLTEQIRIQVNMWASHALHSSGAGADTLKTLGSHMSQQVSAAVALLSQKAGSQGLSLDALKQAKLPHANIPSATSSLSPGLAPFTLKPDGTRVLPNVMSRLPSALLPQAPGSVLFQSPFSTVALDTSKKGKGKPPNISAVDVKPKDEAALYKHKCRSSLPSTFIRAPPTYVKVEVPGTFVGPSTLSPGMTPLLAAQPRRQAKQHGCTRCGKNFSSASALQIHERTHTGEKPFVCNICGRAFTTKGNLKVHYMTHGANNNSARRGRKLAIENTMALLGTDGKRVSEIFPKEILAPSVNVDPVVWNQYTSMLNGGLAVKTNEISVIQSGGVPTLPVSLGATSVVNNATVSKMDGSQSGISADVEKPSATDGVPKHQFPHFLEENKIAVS
For `CACGGGTA`, the E-score was -0.135.
`GGATCCCA` has an E-score of -0.139.
`CAAGGACA` has an E-score of -0.0207.
`ATAGCGCC` has an E-score of -0.092.
The E-score of `CTGGACAC` is reported as -0.268.
`CGAGTAAG` has an E-score of -0.104.
`GATAGAGC` has an E-score of -0.0353.
`GCCGGTGA` has an E-score of -0.203.
For `GCTCAAGA`, the E-score was -0.183.
`CCTAGTGC` gave an E-score of -0.119.
`AGGGACTC` has an E-score of -0.199.
The E-score of `CATGCTGG` is reported as -0.138.
`GACAGACA` gave an E-score of 0.0551.
`CAATTGTA` gave an E-score of 0.0509.
With `CTGTCAAC` the E-score was -0.156.
For `GCGACCAA`, the E-score was -0.106.
`ACCACTGA` has an E-score of -0.0939.
`AAGAGGCC` gave an E-score of -0.225.
For `GATGTAGC`, the E-score was -0.161.
The E-score of `GGCTCCCC` is reported as -0.383.
The E-score of `CATCACCC` is reported as -0.2.
For `CATATTAA`, the E-score was 0.417.
With `TAGCATGA` the E-score was 0.118.
For `AGACGTCC`, the E-score was -0.0712.
`CGGGCCCC` has an E-score of -0.422.

Study 4
Target: RNA binding protein fox-1 homolog 2, RRM domain, GST-SBP tag (RBFOX2, Homo sapiens, UniProt O43251-10, residues 100-194)
Method: RNA Bind-n-Seq
Form: RNA
Medium: in vitro
Concentration: 365 nM
Setting: natural RNA segment, single round, ends assumed
Relative to: no-protein control
Direction: higher = stronger binding
Constant ends, left off below: GGGAGUUCUACAGUCCGACGAUC … UGGAAUUCUCGGGUGCCAA
Construct (chain): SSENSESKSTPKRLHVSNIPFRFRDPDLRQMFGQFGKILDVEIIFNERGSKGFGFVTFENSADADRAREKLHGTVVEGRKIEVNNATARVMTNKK
For `UUCCAUCUGCAUCUUCCAGAUUUAUCAUGAGUGAUCUUGUUCUACUGUUAAAGAUGUCAAGCCUAAAAAGUAAUAAAGUUUUUAUUUGGCUGUUGAACCUUGAUGUAGCC`, “RBNS enrichment (R)” read 0.981.
For `UGGCACCAGCACCUUAGAAGUUGUUGGCAGAAGGCACUUAAACUGUGGGAGAAGUGUGCACACCUUUGAGUCCCUUCCCUCAAGGUUAAAGCUCCUGUCAGACUCUCAGA`, “RBNS enrichment (R)” read 0.305.
Under “RBNS enrichment (R)”, `ACUUCGCUUGUAUUGUAAAAGGAGGGUAUAUUUGCACUUAUGUAUACUUUGACAGUUUGCCAAGAUAUUUUGAUGUAAGGUUUUUUUUUUUUCAAUAAAAUGUGUAUAAC` is recorded as 2.03.
`CUUUGCCUGUAUUUAUCAAAGAAAAAGACCAAAAGAUGAUGGUAAAACCUCUGUUUCUAUAGAUUUAUUUUUAUACAUGUUUAAUUAUUGAAUCAUAAAAUGGGGACAUA` — result for “RBNS enrichment (R)”: 0.54.
`ACUGUCCCAGACGAGGGGCUUCCUCUAGAGUCUCACUGCUGGGGAGGAGAGGACUGGGCCUGAUGGAAGUUAACCCGGAGCUAAGUCACCCAGAGCACAGGAGCUGCCAU`: “RBNS enrichment (R)” 0.391.
For `AGCAUAUCUGUGACCAUCUGCUCCUGAUAACCACUGUCCAGCAUCUCUUCGGGCCAGCCCGGUGCCACGGUCACAUGGGGGAAGACUUCAGCCACAGCUGUGAGCAGCUC`, “RBNS enrichment (R)” read 0.731.
`CUUGUUGACAGAAUGAGACCCUGUGGAAAAAAAAAAAAAAGCCCUCCCAUGCCAGAACAGAGGAUGGCAGUCUGUUUCAAUAAGACACUGUGUCCUUGGUGUUGGUUCUG`: “RBNS enrichment (R)” 0.761.
Under “RBNS enrichment (R)”, `GAUUUUUAUUUAAGAAUAAAAGAGUACUUUGAUCAUGAGACAUAGGUAUCUUGUCCCUCUCACUAAAAAGGAGUGUUGUGUGUGGCGGCCACGUGCUUCUAUGUGGUGUU` is recorded as 0.491.

Study 5
Target: ABI1, truncated, D143A, DHFR fusion (Arabidopsis thaliana)
Method: DHFR PCA, deep sequencing
Medium: yeast
Setting: methotrexate growth selection, single substitutions
Together with: (+)-ABA 200 µM
Relative to: wild-type fitted maximum
Direction: higher = stronger binding
Starting sequence: PYL1, truncated, DHFR fusion (Arabidopsis thaliana); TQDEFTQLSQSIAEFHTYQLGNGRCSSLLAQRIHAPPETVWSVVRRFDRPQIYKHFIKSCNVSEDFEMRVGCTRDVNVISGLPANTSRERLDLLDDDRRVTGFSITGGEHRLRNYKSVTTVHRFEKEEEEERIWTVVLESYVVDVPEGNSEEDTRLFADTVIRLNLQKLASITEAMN; partner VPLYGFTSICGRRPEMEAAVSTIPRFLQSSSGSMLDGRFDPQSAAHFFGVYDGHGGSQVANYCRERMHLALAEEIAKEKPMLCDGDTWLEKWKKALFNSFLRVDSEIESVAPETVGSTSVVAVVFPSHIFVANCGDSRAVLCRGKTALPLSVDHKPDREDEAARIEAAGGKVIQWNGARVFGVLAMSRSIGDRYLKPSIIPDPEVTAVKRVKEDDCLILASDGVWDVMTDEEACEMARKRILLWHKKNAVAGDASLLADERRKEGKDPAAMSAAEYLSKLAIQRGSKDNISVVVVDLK
`R49S` — result for “relative binding score”: 94.7%.
For `L156V`, “relative binding score” read 97.5%.
`V44K`: “relative binding score” 18.3%.
Under “relative binding score”, `I172T` is recorded as 91.7%.
For `E67R`, “relative binding score” read 98.6%.
Under “relative binding score”, `N22W` is recorded as 93.2%.
For `E4A`, “relative binding score” read 92.9%.
`C60G` — result for “relative binding score”: 10.1%.
`L112I`: “relative binding score” 51.4%.
For `L28W`, “relative binding score” read 78.1%.
`D48W` — result for “relative binding score”: 36.2%.
Under “relative binding score”, `P146H` is recorded as 23.9%.
`K126G` — result for “relative binding score”: 107%.
For `R32F`, “relative binding score” read 86.9%.
Under “relative binding score”, `R32M` is recorded as 89.5%.
For `E4I`, “relative binding score” read 99.4%.
`D144A`: “relative binding score” 68.5%.
`E127G`: “relative binding score” 113%.
Under “relative binding score”, `R99Y` is recorded as 111%.
`D159A` — result for “relative binding score”: 60.9%.
`L94C`: “relative binding score” 79.9%.
`D153P`: “relative binding score” 3.45%.
`E125R` — result for “relative binding score”: 104%.
`R132Q`: “relative binding score” 110%.
`D159R`: “relative binding score” 29.2%.

Excerpt of the above (study 3):
`CGAGTAAG` has an E-score of -0.104.
`CAAGGACA` has an E-score of -0.0207.
`CGGGCCCC` has an E-score of -0.422.
`AAGAGGCC` gave an E-score of -0.225.
The E-score of `CTGGACAC` is reported as -0.268.
For `CATATTAA`, the E-score was 0.417.
`GATAGAGC` has an E-score of -0.0353.
`ACCACTGA` has an E-score of -0.0939.
For `CACGGGTA`, the E-score was -0.135.
The E-score of `GGCTCCCC` is reported as -0.383.
The E-score of `CATCACCC` is reported as -0.2.
For `GATGTAGC`, the E-score was -0.161.
For `GCGACCAA`, the E-score was -0.106.
`CAATTGTA` gave an E-score of 0.0509.
`AGGGACTC` has an E-score of -0.199.
